Results pooled from the literature.
Protocols differ between the studies behind these lines. Numbers after ± are the reported error.

Cc1cc(S(=O)(=O)N(C)CC(=O)Nc2ccc(N3CCOCC3)c(Cl)c2)c2[nH]ncc2c1 — intrinsic clearance (human liver microsomes): 195 µL/min/mg
Cc1ccc(F)c(C(=O)C=C(O)C(=O)OCc2ccccc2)c1Cl — intrinsic clearance (mouse liver microsomes; 0.5 µM, 30 min): > 30 mL/min/g
Cc1cnc(N)c(S(=O)(=O)N(C)CC(=O)Nc2ccc(N3CCN(C)CC3)c(Cl)c2)c1 — intrinsic clearance (human liver microsomes): 15 µL/min/mg
CCc1ccc([C@@H]2C[C@H](C(F)(F)F)n3ncc(C(=O)NCc4ccc(OC)cc4)c3N2)cc1 — intrinsic clearance (mouse liver microsomes): 1.9 mL/min/g
Cc1ccc2nc(C)c(C(=O)NCc3ccc(C(F)(F)F)cc3)n2c1 — intrinsic clearance (human liver microsomes): 46 ml/min/g protein
Cc1cccc(-c2nc(Nc3ccncn3)c3sccc3n2)n1 — intrinsic clearance (mouse liver microsomes): 19.5 mL/min/g
COc1ccc(NC(=O)CN(C)S(=O)(=O)c2cc(C)cnc2N)cc1Cl — intrinsic clearance (human liver microsomes): 115 µL/min/mg
COc1ccc(C2(c3cn(-c4ccc(C)c(-c5cccc(C(=O)O)c5)c4)nn3)CC2)cc1 — intrinsic clearance (human liver microsomes): 23.2 mL/min/kg
COc1cc(NC(=O)CN(C)S(=O)(=O)c2cc(C)cnc2N)ccn1 — intrinsic clearance (human liver microsomes): -14 µL/min/mg
Cc1ccc2nc(C(F)(F)F)c(C(=O)NCc3cccc(Cl)c3)n2c1 — intrinsic clearance (mouse liver microsomes): > 30 mL/min/g
CN1CCN([C@@H]2CCCC[C@H]2N(C)C(=O)Cc2ccc(Cl)c(Cl)c2)CC1 — intrinsic clearance (human liver microsomes): 3.4 mL/min/g
O=C(O)CCn1c(=O)oc2cc(Cl)c(Cl)cc21 — intrinsic clearance (dog liver microsomes): < 0.5 mL/min/g
CN(C)CCNC(=O)c1cc(-c2ccccc2)nc2ccccc12 — intrinsic clearance (mouse liver microsomes): 246 mL/min/kg
COC(=O)C(O)=CC(=O)c1ccccc1Br — intrinsic clearance (mouse liver microsomes; 0.5 µM, 30 min): 3.2 ± 0.7 mL/min/g
Cc1cccc(-c2nc(Nc3ccncn3)c3c(C)csc3n2)n1 — intrinsic clearance (human liver microsomes): 7.2 mL/min/g
Cc1cnc(N)c(S(=O)(=O)N(C)CC(=O)Nc2ccc(C#N)c(Cl)c2)c1 — intrinsic clearance (human liver microsomes): 113 µL/min/mg
COc1ccc2nc(C)cc(OCC(=O)Nc3ccccc3OC)c2c1 — intrinsic clearance (human liver microsomes): 5.1 mL/min/g
NC1CC1c1ccc(NC(=O)c2cccc(NC(=O)OCc3ccccc3)c2)cc1 (stereo not drawn) — intrinsic clearance (human liver microsomes; 1 µM): 12.2 ± 1.7 µL/min/mg protein
Cc1ccc2nc(C)c(C(=O)NCc3cccs3)n2c1 — intrinsic clearance (mouse liver microsomes): > 30 mL/min/g
CN(C(=O)CC1CCCCC1)[C@@H]1CCCC[C@H]1N1CCCC1 — intrinsic clearance (mouse liver microsomes): 5.2 mL/min/g
c1cc2c(s1)CCOC21CCN(Cc2ccc3c(c2)OCCO3)CC1 — intrinsic clearance (human liver microsomes): 25.1 mL/min/g
CN(C(=O)Cc1ccc(Cl)c(Cl)c1)[C@@H](CN1CCCC1)c1ccccc1 — intrinsic clearance (human liver microsomes): 1.4 mL/min/g
Cc1cnc(N)c(S(=O)(=O)N(C)CC(=O)Nc2ccc(N3CCOCC3)c(Cl)c2)c1 — intrinsic clearance (human liver microsomes): 18 µL/min/mg
COc1ccc2nc(C)cc(OCC(=O)Nc3cc(C)cc(C)c3)c2c1 — intrinsic clearance (mouse liver microsomes): > 30 mL/min/g
